Results pooled from the literature.
Each numbered part is a random draw from the data of one study; scales do not carry over between parts.

Series 1
Target: Interferon regulatory factor 5, full length, phosphomimetic (IRF5, Homo sapiens, UniProt Q13568-2, residues 1-514, K96S/S451D/S453D/S456D/S462D)
Technique: protein-binding microarray
Molecule type: double-stranded DNA, one strand shown
Sample: in vitro
Tested at: 250 nM
Notes: 60-bp whole probe
With: salmon DNA 0.4 mg/ml
Baseline: random background probes
Direction: higher = stronger binding
Measurement: log fluorescence
All sequences stand within: GCCTAGCAC … GTCTTGATTCGCTTGACGCTGCTG
GGGTCTGTGCCTTTTTTTTTGTGCTAG: -0.21 z-score
GACGGTATCGGTTCCGGGACGTGCTAG: 6.01 z-score
GACGGACTGATTATCCTGACGTGCTAG: -0.172 z-score
TTAGGTTTCCTGATCCTTTAGTGCTAG: 0.324 z-score
GACGAACTGAGTCACGAGACGTGCTAG: -0.268 z-score
TCAAACTTGTGTTTGTCACTGTGCTAG: 0.316 z-score
GACGGTCTCGTTTTCGGGACGTGCTAG: 1.82 z-score
CCGCATATCGGGGTGCGCCCGGTGCTA: -0.139 z-score
CTAGATATCAGTATCGATTAGTGCTAG: 7.86 z-score
TTAGGTTTCGGACAGGGTTAGTGCTAG: 5.55 z-score
GACGGTACCGGTTTCGGGACGTGCTAG: 3.15 z-score
CAGAATTTACTTTCTACGTCGTGCTAG: 3.34 z-score
TCATTTCTGTGTCACAGACTGTGCTAG: 2.29 z-score
TAGAGTAGCTTTCTGAGGGCGTGCTAG: 0.331 z-score
TTAGAACTGGGGACTGGGTTAGTGCTA: -0.467 z-score
TAACCTTGAACTTTGGCCTCGTGCTAG: 0.11 z-score
TTAGGTATCGGAGTGGGTTAGTGCTAG: 1.23 z-score
TCATGGTTGAACATGAAACTGTGCTAG: 0.408 z-score
TTAGGTATCCTTCTCCATTAGTGCTAG: 0.427 z-score
TTAGATATCAGACCGGATTAGTGCTAG: 0.202 z-score
GACGAACTGGGGCTTCGAGACGTGCTA: -0.594 z-score
TTGGATCTCAGTTTCGATTAGTGCTAG: 8.94 z-score

Series 2
Target: RING finger protein unkempt homolog, zinc fingers 1-6, GST-SBP tag (UNK, Homo sapiens, UniProt Q9C0B0, residues 30-357)
Technique: RNA Bind-n-Seq
Molecule type: RNA
Sample: in vitro
Tested at: not given
Notes: RNA with constant flanks, human and mouse sites, ends assumed
Baseline: input RNA pool
Direction: higher = stronger binding
Measurement: bound/input enrichment
Target sequence (chain): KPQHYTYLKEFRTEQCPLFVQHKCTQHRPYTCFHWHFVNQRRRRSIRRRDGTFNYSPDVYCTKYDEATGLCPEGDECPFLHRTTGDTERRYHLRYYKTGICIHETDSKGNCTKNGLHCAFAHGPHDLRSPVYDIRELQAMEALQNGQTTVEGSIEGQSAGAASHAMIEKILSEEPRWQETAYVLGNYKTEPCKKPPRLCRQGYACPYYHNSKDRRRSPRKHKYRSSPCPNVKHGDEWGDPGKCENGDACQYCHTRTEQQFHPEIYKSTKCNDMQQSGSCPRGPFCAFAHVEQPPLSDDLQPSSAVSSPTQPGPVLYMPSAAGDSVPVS
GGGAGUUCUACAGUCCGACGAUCACAAAGACAGUCAUUAAAGAAGGUGAAGAACAGCUGCAGACUCAGCACCAGAAAACGUUCAUAGGGAAAAUUCCAAUUAUGCUGCGCUCCACCUACUGCCUGUUAAAUGGCUUAACAGAUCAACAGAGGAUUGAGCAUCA: 0.686 ratio
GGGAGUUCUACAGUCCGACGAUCUUUACUGUUUUGGGGAGCACAGCCAGAGAGAGGGCUAAACACUCAGGCGACUACUUUACUCUUUUAAGACAUCUUCUUAAUUACGCCUACAACAGUAACAUUAAUGUGCCCAAUGCUGAACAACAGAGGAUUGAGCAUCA: 0.431 ratio
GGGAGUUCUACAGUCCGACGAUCGAAGAAGGCUGCUUUGCGUUUGUUUUUAAGACGUUAACAUUAUUUUUUUGGUUGUACUGCACUAGGAAAUCUCUCCUACCCCUCCUUUUCUCUUCUCUCCCUAGAUAAAAAUAAAAGGCCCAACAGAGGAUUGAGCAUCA: 3.73 ratio
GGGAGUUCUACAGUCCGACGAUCCAUGGGUUUUAAGUGCUUGUGGCUCUCUGAAGCUUAAGUGAGGAUUUCCUUGCAAUGAGUAGAAUUUCCCUUCUGUCCCUUGUCACAAGUUUAAAAACCUCACAGCUUGUAUAAUGUAAUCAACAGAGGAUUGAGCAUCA: 0.191 ratio
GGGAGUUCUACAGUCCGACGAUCACAUCAGCGAACUCAUGCAGGGGAAAAGCCUUAUGGGUGCAGUGAAUGUGGGAAAGCUUUUAGCAGCAAGUCAUACCUAAUUAUACACAUGAGAACUCAUUCAGGUGAAAAACCAUAUGACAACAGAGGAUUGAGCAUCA: 0.183 ratio
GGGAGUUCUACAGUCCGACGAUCCGCGCAGGGAUGGAGGCCUGUCUUGUUCCCGCCAAUUCUCGUGUCAGUCCUGUCCGGGUCUAGUUCUUUACUUCAUGGAGCCAUUUGAUCCUGCGGAGCUGCCGGAGCUACUCAAGCUUUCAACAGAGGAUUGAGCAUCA: 0.0326 ratio
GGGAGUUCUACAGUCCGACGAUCAGACAGCCCAUACACUCUGUCUCACAUCUGAUCCUUGGUGGGAAGUGUUUUAAAGUAGAACUAUGUAUGAAUUUCAGAAUUCAUGCAUUUUAAAACUUCACUAAGAUAUUGUCUCAUAUCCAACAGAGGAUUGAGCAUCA: 0.188 ratio
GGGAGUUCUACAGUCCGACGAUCCUCCCUGAUGACAUCAGCCAUGGCUAUGGCUGGUCCAUGUUCUGUGCAUGGGGGGGCCUGGGCCUCACACUCAUCUCGGGAUUCUUCUGUACCUUAGCCCCUUCUGUUCAACCUGUCCCGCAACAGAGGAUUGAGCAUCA: 0.121 ratio
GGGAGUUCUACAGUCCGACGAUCAGAGCAUCUCUCACAUAUUAAAGAAAGUGUUGAAGAUAAGCUGGAAUUGAGACGGAAACAAUUUCACGUUCUUCUUAGUACCAUCCAUGAACUUCAACAGACAUUGGAGAGUAAGUGAAACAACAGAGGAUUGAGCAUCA: 0.174 ratio
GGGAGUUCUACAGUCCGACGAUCGCAGACAAGGCAGGGUUGCACUUCCUGCAGAAGAGGAUUAUUUACCACUUAAACCACGAGUUGGAAAAGCUGCUAAGGAAUACCCGUUCAUUCUUGAUGCUUUUCAAAGAGAGGCCAUUCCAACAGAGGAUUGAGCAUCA: 0.146 ratio
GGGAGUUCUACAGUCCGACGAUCGGUGUGUUUUUUCUGGAUAUCACAUUUUCAUCAGAUUAUCCAUUUAAGCCACCAAAGGUUACUUUCCGCACCAGAAUCUAUCACUGCAACAUCAACAGUCAGGGAGUCAUCUGUCUGGACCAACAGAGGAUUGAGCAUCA: 0.182 ratio

Series 3
Target: Ras GTPase-activating protein-binding protein 1, full length (G3BP1, Homo sapiens, UniProt Q13283)
Sequence of UniProt Q13283 (whole entry, looked up): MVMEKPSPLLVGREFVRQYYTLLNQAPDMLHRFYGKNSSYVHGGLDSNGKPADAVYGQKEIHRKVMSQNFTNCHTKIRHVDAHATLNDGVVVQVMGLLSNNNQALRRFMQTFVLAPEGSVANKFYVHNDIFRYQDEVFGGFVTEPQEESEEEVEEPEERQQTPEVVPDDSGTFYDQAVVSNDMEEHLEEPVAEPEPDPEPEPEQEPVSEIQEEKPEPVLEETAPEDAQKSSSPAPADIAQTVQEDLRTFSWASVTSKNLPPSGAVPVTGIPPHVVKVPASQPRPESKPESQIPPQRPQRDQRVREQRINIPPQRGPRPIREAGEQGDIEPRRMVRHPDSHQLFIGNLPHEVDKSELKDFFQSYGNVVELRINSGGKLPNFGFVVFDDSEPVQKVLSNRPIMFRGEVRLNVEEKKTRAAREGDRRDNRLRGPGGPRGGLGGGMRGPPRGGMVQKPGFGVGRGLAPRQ
Technique: RNA Bind-n-Seq
Molecule type: RNA
Sample: in vitro
Tested at: 200 nM
Notes: whole 134-nt RNA, ends assumed
With: 150 mM LiCl
Baseline: input library
Direction: higher = stronger binding
Measurement: log2 enrichment
Each molecule: 7-deaza-guanosine replaces G
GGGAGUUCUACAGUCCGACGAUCACCAUGCAGGUGGGCAUCUUUGGGAAGUGGGGCAAGGGGAGGAUAGGGAGGGGGGUAACACUUUGGGAACAGGUGGUCCCAGGUCGUUUCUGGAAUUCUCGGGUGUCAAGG: 0.376
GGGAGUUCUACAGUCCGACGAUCUCCUGUGCUACACAUCGUAUGUACCGAAUCGGGGUUUUUGGGGUUUUUUUGGGGAGGGGAAAGUAUUAUGUUACGCCGUUCGGAUCUGCAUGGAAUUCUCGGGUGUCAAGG: 1.03
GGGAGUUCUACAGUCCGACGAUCGCAGGAAGUAAAAACAAAUGGAAAUGCUUCGGAUAGUGGCAGGGGUGGGGGUUGCUAAGGAAAGGGUGGGAUGGGAGGGGGUAAAGAGUUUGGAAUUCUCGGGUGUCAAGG: -0.862
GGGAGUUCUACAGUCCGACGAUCCUCAAGUCCUGUGCUACACAUCGUAUGUACCGAAUCGGGUUGGUUGGGUUGGGAAAGUAUUAUGUUACGCCGUUCGGAUCUGCACUUCCAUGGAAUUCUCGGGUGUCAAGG: -0.227
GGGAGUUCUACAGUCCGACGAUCGCAGGAAGUAAAAACAAAUGGAAAUGCUUCGGAUAGUCGCAGGGGUGGGGGUUGCUAAGGAAAGGGUGGGAUGGGAGUGGGUAAAGAGUUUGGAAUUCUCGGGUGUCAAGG: 0.829
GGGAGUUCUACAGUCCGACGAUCUCAAGUCCUGUGCUACACAUCGUAUGUACCGAAUCGGGGAAGGGGAAGGAAGGGAAAGUAUUAUGUUACGCCGUUCGGAUCUGCACUUCCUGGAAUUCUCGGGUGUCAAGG: -0.638
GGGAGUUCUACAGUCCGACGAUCGUCCUGUGCUACACAUCGUAUGUACCGAAUCGGGUGGGUUUUUUUGGGUUUUUUUGGGAAAGUAUUAUGUUACGCCGUUCGGAUCUGCACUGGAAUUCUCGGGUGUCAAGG: 0.26
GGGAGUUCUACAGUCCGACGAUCUCCUGUGCUACACAUCGUAUGUACCGAAUCGGAAAAAAGGGGAAAAAAGGGAAAAAAGGAAAGUAUUAUGUUACGCCGUUCGGAUCUGCAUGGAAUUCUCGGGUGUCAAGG: -0.208
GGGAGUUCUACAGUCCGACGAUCUUACUAGAAAAGGCAGAAGCCCGUGAACGUGAAAGAGAAAAAGAAGAGGCUCGGAAGAUGAAACGAAAAGAAUCUGCAUUUAAGAGUAUGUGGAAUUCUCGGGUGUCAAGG: -2.15
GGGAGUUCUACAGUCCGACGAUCAAGUCCUGUGCUACACAUCGUAUGUACCGAAUCGGUUUUUGGAAAGGAAAAAAAGGAAAGUAUUAUGUUACGCCGUUCGGAUCUGCACUUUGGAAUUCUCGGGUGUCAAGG: -0.923
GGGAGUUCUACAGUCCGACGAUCUCCUGUGCUACACAUCGUAUGUACCGAAUCAAACCCCCAAACCCCCAAACCCCCCCAAAAAAGUAUUAUGUUACGCCGUUCGGAUCUGCAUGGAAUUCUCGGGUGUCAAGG: 0.0501

Series 4
Target: RNA binding protein fox-1 homolog 2, RRM domain, GST-SBP tag (RBFOX2, Homo sapiens, UniProt O43251-10, residues 100-194)
Technique: RNA Bind-n-Seq
Molecule type: RNA
Sample: in vitro
Tested at: 365 nM
Notes: natural RNA segment, single round, ends assumed
Baseline: no-protein control
Direction: higher = stronger binding
Measurement: RBNS enrichment (R)
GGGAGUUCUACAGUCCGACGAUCUAGAAGUCCCCCUUGAAUGACCCCCAGAGCCCCUCUGAGAAGGGCUGGAGUUUGGGGGAAGGGGAUGGCUGGAUGUGCUCCAGGCCAUGCUGGAGGUACCCCCGAGGCACUGGAAUUCUCGGGUGCCAA: 1.4
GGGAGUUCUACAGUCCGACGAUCUGGACAGGCACACGGCAUGGCCCUCGGCUAGAGCAGGGUCUGUGAUGGCCUCACCUGGCAGCCCUCUGGCCUAGUUCCCACCACACAUGAGGUGGUGGAAUGGCCUGAAGUGGAAUUCUCGGGUGCCAA: 0.758
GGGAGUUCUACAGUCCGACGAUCCACAUCCAUUGACUGACCCCCUCCUCCAGCAAUAGCAUCCAAGGGGCCUGGAAGUUAUGUUGUUCAAAGAAGCCUGGUGGCAAUAAGGAUCUUCCCACUUUGCCACUGGAUGGAAUUCUCGGGUGCCAA: 0.382
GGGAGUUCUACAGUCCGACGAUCGUAUCAGCAUAUCAUUUAGACAUUGUGAAAAUGAAUUCCUAAACAUUUUCAUAAAACCGGUUAAUUUUGUAGUUUUAGCCAAAAAGUGCCCCCUUUUUACAACUGAAUUCUGGAAUUCUCGGGUGCCAA: 0.937
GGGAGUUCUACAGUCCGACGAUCUUGAUGAAAAGCCUAGAAAUUAGUUCCUCUUAAAGUGCAAUAUUACUUAACCUCAGAAUCGGGCCAGUUCUGUAGAUCCUCAAGAGAAGCUUCAGUGACUGUCCCUUUGAUGGAAUUCUCGGGUGCCAA: 0.565
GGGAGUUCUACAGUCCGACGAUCUGUUUUGUUUGUUUGUUUGUUUGUGUUUUUGUUCUUUUGAAGAAUAGAGUGGUAUUUAGAAAAUAAAUUGCAUUGCAAAGCUCUUAUCGGCUCAUAUGAGAGAGCAGGUUUGGAAUUCUCGGGUGCCAA: 1.65
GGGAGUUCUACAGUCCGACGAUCUUGGAGUAAUUCAGUAUAGGUUCGUUUAAAAGAGAUUUUUAUAACUUCAGACAUGCAUCAGUAGGAAAUAACUUGAGAAAUUCAUAUGGUUAUGUUACAAAUUCAUAUUCUGGAAUUCUCGGGUGCCAA: 1.73
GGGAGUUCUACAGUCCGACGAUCGGCCAAGGGCAGAGGAUGUAAUGAGGGGUGGAGUGAGGAUGUGGAGAGAGAGCAGAGAGCGCCUCCUAUUCUACCGCGGCUGCCUCUGCCCCCACAGCACCCACAGAUCCUGGAAUUCUCGGGUGCCAA: 0.901
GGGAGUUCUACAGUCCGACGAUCGCUUUGGGCUUUCUCCUUCUGUGGCCCCGGAGGAAGGAGAGACUGAGGCAAGGCAAAGUGAUAGUACACGGAAGCAGAACCGGAAACACCCAGGAACUGUUCAGAAAUCUUGGAAUUCUCGGGUGCCAA: 0.675

Excerpt of the above (series 1):
TTAGAACTGGGGACTGGGTTAGTGCTA: -0.467 z-score
TAACCTTGAACTTTGGCCTCGTGCTAG: 0.11 z-score
TTAGGTATCGGAGTGGGTTAGTGCTAG: 1.23 z-score
TCATGGTTGAACATGAAACTGTGCTAG: 0.408 z-score
TTAGGTATCCTTCTCCATTAGTGCTAG: 0.427 z-score
TTAGATATCAGACCGGATTAGTGCTAG: 0.202 z-score
GACGAACTGGGGCTTCGAGACGTGCTA: -0.594 z-score
